Experimental data pooled from the literature.
Parts stem from different laboratories: compare values within a part only.
Chain of UniProt P48730 (whole entry, looked up): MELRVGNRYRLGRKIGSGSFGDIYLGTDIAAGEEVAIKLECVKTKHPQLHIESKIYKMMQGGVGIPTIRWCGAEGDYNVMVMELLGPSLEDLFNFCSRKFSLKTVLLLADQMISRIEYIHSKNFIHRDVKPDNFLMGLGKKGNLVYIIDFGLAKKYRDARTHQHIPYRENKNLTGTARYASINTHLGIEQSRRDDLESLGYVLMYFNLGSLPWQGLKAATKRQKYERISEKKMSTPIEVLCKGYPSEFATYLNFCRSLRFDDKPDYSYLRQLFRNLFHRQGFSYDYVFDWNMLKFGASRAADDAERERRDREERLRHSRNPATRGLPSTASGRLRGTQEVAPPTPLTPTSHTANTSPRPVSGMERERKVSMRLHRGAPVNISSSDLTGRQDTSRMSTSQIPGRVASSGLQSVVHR
Chain of UniProt O94804 (whole entry, looked up): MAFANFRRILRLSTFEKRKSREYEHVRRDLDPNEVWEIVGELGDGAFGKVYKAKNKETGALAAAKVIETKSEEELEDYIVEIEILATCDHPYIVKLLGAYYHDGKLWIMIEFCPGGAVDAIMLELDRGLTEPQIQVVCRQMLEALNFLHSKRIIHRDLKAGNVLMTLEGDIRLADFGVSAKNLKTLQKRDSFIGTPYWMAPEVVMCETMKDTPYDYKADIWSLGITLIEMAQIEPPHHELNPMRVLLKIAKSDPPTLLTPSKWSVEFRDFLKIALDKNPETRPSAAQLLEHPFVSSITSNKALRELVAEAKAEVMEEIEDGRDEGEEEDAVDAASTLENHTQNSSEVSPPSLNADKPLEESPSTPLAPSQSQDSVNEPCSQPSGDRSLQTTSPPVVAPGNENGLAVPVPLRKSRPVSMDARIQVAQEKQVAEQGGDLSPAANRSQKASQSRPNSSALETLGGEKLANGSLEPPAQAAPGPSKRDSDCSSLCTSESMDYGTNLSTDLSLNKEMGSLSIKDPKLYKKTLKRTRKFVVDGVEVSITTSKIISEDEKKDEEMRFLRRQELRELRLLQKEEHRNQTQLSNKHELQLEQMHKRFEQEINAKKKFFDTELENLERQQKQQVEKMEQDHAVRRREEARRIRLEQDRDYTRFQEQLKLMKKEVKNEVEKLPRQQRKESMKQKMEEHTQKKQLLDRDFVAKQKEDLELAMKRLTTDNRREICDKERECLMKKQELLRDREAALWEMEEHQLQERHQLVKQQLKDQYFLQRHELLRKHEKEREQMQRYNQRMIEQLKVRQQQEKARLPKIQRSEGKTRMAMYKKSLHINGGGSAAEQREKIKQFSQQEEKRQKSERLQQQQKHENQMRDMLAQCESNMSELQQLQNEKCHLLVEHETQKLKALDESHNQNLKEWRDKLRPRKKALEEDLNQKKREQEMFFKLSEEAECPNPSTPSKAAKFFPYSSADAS
Chain of UniProt Q15375 (whole entry, looked up): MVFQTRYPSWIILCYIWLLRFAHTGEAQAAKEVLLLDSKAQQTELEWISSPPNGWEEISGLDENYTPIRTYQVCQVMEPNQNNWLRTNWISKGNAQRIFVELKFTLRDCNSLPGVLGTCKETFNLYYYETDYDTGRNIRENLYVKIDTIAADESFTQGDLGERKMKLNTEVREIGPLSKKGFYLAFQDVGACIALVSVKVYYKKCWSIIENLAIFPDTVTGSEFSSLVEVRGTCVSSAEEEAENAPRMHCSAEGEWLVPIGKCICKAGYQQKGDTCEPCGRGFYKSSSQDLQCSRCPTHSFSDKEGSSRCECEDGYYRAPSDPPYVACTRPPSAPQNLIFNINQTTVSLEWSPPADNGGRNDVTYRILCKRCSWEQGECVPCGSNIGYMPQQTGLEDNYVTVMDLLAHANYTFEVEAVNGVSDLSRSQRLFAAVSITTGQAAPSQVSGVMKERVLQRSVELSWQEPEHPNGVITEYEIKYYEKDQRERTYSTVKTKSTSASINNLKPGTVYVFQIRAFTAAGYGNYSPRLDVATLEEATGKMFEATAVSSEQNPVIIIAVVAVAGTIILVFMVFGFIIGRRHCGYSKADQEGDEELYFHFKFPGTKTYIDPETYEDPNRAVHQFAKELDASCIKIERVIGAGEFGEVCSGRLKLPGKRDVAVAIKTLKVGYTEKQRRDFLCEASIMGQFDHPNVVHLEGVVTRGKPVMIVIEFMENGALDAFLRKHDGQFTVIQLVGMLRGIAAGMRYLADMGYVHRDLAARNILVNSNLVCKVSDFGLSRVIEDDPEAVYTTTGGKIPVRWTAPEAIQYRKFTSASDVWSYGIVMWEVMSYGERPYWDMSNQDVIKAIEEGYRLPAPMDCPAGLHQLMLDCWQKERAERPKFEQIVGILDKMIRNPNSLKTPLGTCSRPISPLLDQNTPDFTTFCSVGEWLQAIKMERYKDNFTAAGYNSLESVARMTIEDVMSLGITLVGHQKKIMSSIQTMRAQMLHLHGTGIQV
Chain of UniProt Q15349 (whole entry, looked up): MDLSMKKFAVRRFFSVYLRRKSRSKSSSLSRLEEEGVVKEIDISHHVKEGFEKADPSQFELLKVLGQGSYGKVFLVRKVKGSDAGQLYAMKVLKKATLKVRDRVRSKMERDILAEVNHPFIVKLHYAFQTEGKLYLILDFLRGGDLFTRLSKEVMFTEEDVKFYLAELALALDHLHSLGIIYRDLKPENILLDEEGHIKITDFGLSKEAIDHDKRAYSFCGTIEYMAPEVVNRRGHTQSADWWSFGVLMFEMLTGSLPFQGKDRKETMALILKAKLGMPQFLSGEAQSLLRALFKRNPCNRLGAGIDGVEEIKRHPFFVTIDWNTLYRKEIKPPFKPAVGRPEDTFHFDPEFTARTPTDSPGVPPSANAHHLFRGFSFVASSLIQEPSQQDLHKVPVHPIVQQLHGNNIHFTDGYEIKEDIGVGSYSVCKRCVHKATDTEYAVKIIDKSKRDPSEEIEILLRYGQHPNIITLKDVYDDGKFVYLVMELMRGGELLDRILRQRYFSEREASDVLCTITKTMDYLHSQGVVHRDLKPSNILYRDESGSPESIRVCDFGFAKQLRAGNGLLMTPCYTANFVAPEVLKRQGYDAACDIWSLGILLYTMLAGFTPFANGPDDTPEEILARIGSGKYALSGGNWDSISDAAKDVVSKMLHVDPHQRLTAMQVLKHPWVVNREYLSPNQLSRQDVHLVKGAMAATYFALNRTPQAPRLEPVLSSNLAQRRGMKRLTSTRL
Chain of UniProt Q99759 (whole entry, looked up): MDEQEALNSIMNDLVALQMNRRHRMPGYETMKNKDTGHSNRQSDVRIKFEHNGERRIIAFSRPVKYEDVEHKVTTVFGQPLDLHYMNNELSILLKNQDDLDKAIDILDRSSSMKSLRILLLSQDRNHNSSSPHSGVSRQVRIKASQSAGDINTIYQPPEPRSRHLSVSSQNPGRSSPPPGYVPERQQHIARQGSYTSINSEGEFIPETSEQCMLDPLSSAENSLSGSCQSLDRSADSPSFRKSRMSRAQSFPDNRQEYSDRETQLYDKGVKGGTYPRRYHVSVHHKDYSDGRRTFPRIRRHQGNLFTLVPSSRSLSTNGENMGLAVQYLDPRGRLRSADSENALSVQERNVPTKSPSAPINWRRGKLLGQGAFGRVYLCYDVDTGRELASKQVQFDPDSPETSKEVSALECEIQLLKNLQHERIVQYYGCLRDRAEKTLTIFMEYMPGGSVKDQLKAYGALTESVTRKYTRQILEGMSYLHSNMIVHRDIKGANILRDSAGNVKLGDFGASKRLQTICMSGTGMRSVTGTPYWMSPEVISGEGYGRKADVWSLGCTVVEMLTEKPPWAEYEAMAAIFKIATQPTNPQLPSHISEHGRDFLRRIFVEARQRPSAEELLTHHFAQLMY
Chain of UniProt Q02750 (whole entry, looked up): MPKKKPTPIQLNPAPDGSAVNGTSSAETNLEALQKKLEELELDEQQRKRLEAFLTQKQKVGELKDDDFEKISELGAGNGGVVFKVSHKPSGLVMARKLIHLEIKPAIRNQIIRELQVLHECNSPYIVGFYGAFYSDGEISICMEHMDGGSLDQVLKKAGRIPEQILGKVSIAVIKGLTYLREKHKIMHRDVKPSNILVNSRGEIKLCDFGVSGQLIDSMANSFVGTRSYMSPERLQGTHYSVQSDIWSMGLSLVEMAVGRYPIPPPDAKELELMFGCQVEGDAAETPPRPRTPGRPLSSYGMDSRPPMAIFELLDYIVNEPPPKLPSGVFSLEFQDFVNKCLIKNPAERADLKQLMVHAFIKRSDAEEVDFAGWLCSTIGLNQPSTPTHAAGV

Sample 1
Species: mouse
Sample: microsomes or S9
Tested at: 2 µM
Time: 0.5 h
`Cc1c(CC(=O)O)c2c(n1-c1ccc(Br)cc1)CC(C)(C)CC2=O` has a remaining compound of 70.3%.
With `OCCN1CCN(Cc2nc(O)c3ccccc3n2)CC1` the remaining compound was over 100%.
The remaining compound of `CC(C)Cn1c(=O)c(N2CCN(S(=O)(=O)Cc3ccccc3)CC2)nc2ccncc21` is reported as 12.6%.
`COC(=O)c1cc(N)c2c(c1)Oc1ccccc1O2` gave a remaining compound of 0%.
The remaining compound of `COc1cc(/C=N/n2cnnc2)cc(Br)c1OCCOc1ccc(C(C)(C)C)cc1` is reported as over 99%.
For `Cc1cc(NC(=O)C(C)c2ccc(Cl)s2)nc(=O)[nH]1` (stereo not shown), the remaining compound was over 100%.

Sample 2
Target: Dual serine/threonine and tyrosine protein kinase (DSTYK, Homo sapiens, UniProt Q6XUX3)
Chain of UniProt Q6XUX3 (whole entry, looked up): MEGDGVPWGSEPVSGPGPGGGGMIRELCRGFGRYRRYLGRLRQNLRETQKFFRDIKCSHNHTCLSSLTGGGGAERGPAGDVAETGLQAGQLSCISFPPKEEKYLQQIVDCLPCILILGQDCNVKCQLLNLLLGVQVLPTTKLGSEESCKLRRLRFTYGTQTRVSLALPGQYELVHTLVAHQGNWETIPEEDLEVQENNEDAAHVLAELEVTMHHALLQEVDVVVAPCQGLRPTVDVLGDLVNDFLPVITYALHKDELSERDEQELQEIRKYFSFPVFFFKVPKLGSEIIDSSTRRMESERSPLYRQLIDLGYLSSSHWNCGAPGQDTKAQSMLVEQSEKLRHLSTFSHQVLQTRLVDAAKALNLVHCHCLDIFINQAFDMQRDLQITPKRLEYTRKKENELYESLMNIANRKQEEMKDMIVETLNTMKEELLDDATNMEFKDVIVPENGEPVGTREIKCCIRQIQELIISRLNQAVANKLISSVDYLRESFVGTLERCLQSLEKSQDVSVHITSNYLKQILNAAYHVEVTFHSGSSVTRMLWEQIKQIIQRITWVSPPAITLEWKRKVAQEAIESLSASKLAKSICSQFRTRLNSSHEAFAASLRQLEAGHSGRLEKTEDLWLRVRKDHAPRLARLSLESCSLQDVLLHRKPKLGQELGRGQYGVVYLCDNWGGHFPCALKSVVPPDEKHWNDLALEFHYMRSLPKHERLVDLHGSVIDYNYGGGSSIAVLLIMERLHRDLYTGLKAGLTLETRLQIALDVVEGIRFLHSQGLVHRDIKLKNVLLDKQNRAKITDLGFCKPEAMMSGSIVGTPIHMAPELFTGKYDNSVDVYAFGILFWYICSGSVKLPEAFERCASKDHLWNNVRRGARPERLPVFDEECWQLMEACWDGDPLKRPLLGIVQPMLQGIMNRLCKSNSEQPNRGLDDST
Effect on: enzyme activity
Action: inhibitor
Tested at: 0.5 µM
Relative to: control
With `O=C(Nc1cccc(Nc2cc(Nc3cccc(C(F)(F)F)c3)ncn2)c1)C1CC1` the remaining activity was 102%.
`Cc1cccc(-c2[nH]c(C(C)(C)C)nc2-c2ccc3c(c2)OCO3)n1` gave a remaining activity of 89.1%.
`O=C1NC(=O)C(c2cn(CCCn3ccnc3)c3ccccc23)=C1Nc1ccccc1` gave a remaining activity of 102%.
`O=S(=O)(c1cccc2cnccc12)N1CCCNCC1` has a remaining activity of 90.4%.
The remaining activity of `COc1cc2nccc(Oc3ccc(NC(=S)NC(=O)c4ccccc4C)cc3)c2cc1OC` is reported as 112%.
The remaining activity of `CC(C)[C@H](CO)Nc1nc(Nc2cc(N)cc(Cl)c2)c2ncn(C(C)C)c2n1` is reported as 93.1%.
For `CN(C)c1ccc(C=C2C(=O)Nc3ccccc32)cc1`, the remaining activity was 103%.
With `Oc1ccc(-c2nc(-c3ccncc3)c(-c3ccc(F)cc3)[nH]2)cc1` the remaining activity was 100%.
With `COc1cc2ncnc(Nc3ccc(F)c(Cl)c3)c2cc1OCCCN1CCOCC1` the remaining activity was 101%.
For `OCC(O)CCON=C1C(c2c(O)[nH]c3ccccc23)=Nc2ccccc21` (stereo not shown), the remaining activity was 104%.
With `COc1ccc(C(=O)Nc2sc3c(c2C(N)=O)CCCC3)cc1OC` the remaining activity was 92.2%.
`Nc1[nH]nc2nc3ccccc3nc12` has a remaining activity of 96%.
`COc1cc2ncnc(Nc3ccc(Oc4ccccc4)cc3)c2cc1OC` has a remaining activity of 91.6%.
With `C#Cc1cccc(Nc2ncnc3cc(OCCOC)c(OCCOC)cc23)c1` the remaining activity was 107%.
`O=C(O)c1ccc2c3c1cccc3c(=O)n1c3ccccc3nc21` has a remaining activity of 103%.

Sample 3
Cell line: HaCaT
Tested at: 100 µM
Time: 36 h
`NC(=O)Cc1cccc(C(=O)c2ccccc2)c1N` gave a viability of 83.4%.
For `CCCCCCCCCCC[C@@H](C[C@@H]1OC(=O)[C@H]1CCCCCC)OC(=O)[C@H](CC(C)C)NC=O`, the viability was 10.5%.
The viability of `O=C(Nc1ncc([N+](=O)[O-])s1)c1ccccc1O` is reported as 24.6%.
With `C=C1c2cccc(O)c2C(=O)C2=C(O)[C@]3(O)C(=O)C(C(N)=O)=C(O)[C@@H](N(C)C)[C@@H]3[C@@H](O)[C@H]12` the viability was 95%.
`NS(=O)(=O)Cc1noc2ccccc12` has a viability of 92.6%.
With `O=C(O)CCCc1ccccc1` the viability was 93.8%.
`Cc1cccc(CN2CCN(C(c3ccccc3)c3ccc(Cl)cc3)CC2)c1` (stereo not shown) has a viability of 66.8%.
`O=C(O)c1cc(=O)c2c(OCC(O)COc3cccc4oc(C(=O)O)cc(=O)c34)cccc2o1` gave a viability of 96.1%.
The viability of `CC(C)(C)NCC(O)c1ccc(O)c(CO)c1` (stereo not shown) is reported as 80.9%.

Sample 4
SMILES: O=C(NC[C@@H]1[C@H]2CN(C(=O)OCc3cc(C(F)(F)F)cc(C(F)(F)F)c3)C[C@@H]12)c1ccc2[nH]nnc2c1
Effect on: cell-free assay
Technique: competition with immobilised ligand
Tested at: 1 µM
For CSNK1D (Homo sapiens, UniProt P48730): remaining binding read 100%.
It gave 96% for remaining binding (EPHA7 (Homo sapiens, UniProt Q15375)).
Ribosomal protein S6 kinase alpha-2, N-terminal kinase domain (RPS6KA2, Homo sapiens, UniProt Q15349) — remaining binding: 100%.
For MAP2K1 (Homo sapiens, UniProt Q02750): remaining binding read 83%.
The remaining binding was 100% (AKT2 (Homo sapiens, UniProt P31751)).
The remaining binding was 94% (MAP3K3 (Homo sapiens, UniProt Q99759)).
STK10 (Homo sapiens, UniProt O94804) — remaining binding: 100%.
